Measured values gathered from unrelated publications.
Every numbered part comes from another study and shows a few of its results, in no order. Substitutions count along the parent as printed.

Series 1 — method: DHFR PCA, deep sequencing; medium: yeast; added: (+)-ABA 1.4 µM; relative to: wild-type fitted maximum; reading: higher = stronger binding
Target: ABI1, truncated, D143A, DHFR fusion (Arabidopsis thaliana)
Notes: methotrexate growth selection, single substitutions
Starting sequence: PYL1, truncated, DHFR fusion (Arabidopsis thaliana); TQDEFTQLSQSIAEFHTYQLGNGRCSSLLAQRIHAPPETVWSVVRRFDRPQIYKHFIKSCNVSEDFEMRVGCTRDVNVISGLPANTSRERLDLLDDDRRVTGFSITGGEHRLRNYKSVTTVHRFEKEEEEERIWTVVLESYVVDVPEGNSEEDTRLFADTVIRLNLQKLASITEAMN
Substitution | relative binding score
R32Q | 40.9%
V70H | -2.74%
S87T | 22.8%
Q10D | 76.7%
N22S | 66.5%
Q31W | -2.44%
D75H | 59.7%
G21T | 54.4%
D92Q | 5.32%
R123Y | 20.3%
D92V | 4.96%
V136K | 7.56%
D65Y | 14.1%
G102T | -1.14%
H16I | -4.02%

Series 2 — target: CCNF, cyclin fold, Cln2 fusion (human); method: yeast growth competition, sequencing; medium: yeast; notes: strong parent motif; relative to: not given; reading: higher = stronger binding
Starting sequence: CDC25A docking peptide (human); PPHRRRLLFACSP; partner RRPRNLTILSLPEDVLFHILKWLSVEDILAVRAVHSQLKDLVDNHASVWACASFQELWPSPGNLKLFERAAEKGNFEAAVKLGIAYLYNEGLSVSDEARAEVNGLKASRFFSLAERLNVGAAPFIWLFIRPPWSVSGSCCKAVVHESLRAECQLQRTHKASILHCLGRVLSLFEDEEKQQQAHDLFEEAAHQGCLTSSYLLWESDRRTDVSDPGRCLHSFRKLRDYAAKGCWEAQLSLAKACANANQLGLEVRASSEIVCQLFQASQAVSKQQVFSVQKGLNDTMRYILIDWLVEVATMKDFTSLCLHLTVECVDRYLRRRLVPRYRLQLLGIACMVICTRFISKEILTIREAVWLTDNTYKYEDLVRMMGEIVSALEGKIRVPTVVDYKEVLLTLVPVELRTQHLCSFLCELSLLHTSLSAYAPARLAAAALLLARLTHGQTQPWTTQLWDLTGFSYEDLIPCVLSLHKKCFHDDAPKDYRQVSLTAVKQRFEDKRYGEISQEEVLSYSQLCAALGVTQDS
Substitution | normalised enrichment score
S12C | 7.33
L8H | 6.68
P1E | 7
C11R | 6.69
P1K | 6.89
L7C | 2.25
A10N | 8.18
A10G | 7.7
L7F | 2.16
P1G | 6.06
S12V | 7.43
F9Y | 4.42

Series 3 — method: RNA Bind-n-Seq; form: RNA; medium: in vitro; concentration: 365 nM; relative to: no-protein control; reading: higher = stronger binding
Target: RNA binding protein fox-1 homolog 2, RRM domain, GST-SBP tag (RBFOX2, Homo sapiens, UniProt O43251-10, residues 100-194)
Notes: natural RNA segment, single round, ends assumed
All sequences stand within: GGGAGUUCUACAGUCCGACGAUC … UGGAAUUCUCGGGUGCCAA
Residues (chain): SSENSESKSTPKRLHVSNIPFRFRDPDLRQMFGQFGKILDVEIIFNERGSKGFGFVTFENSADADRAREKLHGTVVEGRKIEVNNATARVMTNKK
Strand | RBNS enrichment (R)
UGCCAGAUACUUCAAUCUCAGAAUUACUAAGAAUCUGGCAGAAGUCCAGAGAAAAGAAAGUAUAAUUGGAAAAUAAAUGUUACACUGGGGUGAAUCUGAAAAAGGGUGGU | 0.568
CAGUGCCACGAGUUGAAAGCUUCCAUACUGAACACUAUCCUUUCACUAUAUAAGUAAAGCAAAUAUAUUAGGCCAGGAUCUCACUGAGGAAUUUGUCUUGUCAUCUUUUA | 0.637
CAUCGUCACGAGCCCCUGUGGUCAUGGGCGACCUCACACCUCCCUCCCUGAGUUCUGCUCUGACAUAAGGAAGUCCUCGGUGGCUGGUGCAGCGCGGCUGUGCUGUGCUG | 0.351
UCUGGAACUGCUGGUCAGGGGACUUUGUCGCCCUGUGCACUAAAGGGCCAGAUUUUCAGCAGCCAAGGACAUCCAUACCCAAGUGAAUGUGAUGGGGCUUCAAGACGUGA | 0.87
ACAGUACUCCUCGCUGCAGGGCACUGUCCCACCGGGAUCCAGUUGCAAAGUUUGUCUUGACAGUUGAAGGCCUCGCUUAGUUGUACUGGAUUCUCAGGGAGCCCUCUGUG | 0.308
GCGUUUAUUAUACAGUGGCAGAUUUCUUUAGCUGCCACAGUAAUACUCAUUCCUUGUGUGUGUCUUGGAGUGCAUUUGACUCCAGGAAAAGCCAUUUUGGUUUUCCUUAA | 0.54
CAGGCCCUUGAUGCCAGGACUCUCUCUACUAAGGCCAGUUCAGGUCUGGGAAAGGGAGCUGGCCUAUUGCCCACCACCUGUUGUCAGUAGGUUAGGAGCUGUUGACUCAG | 0.328
UCCCUCUGAGAGUUGUGAGGAUGUGUAACAAGUAUUUUCUUCUAUCGUGCCUGCCAGGGCUGAAGCUGCCUGGUAUCCAGGAGGGGAAUGCUGGUAUCCCCAUAUGUCUG | 1.87

Series 4 — method: protein-binding microarray; form: double-stranded DNA, one strand shown; medium: in vitro; concentration: 2540 nM top; notes: 60-bp whole probe; added: salmon DNA 0.4 mg/ml; relative to: random background probes; reading: higher = stronger binding; all sequences stand within: GCCTAGCAC … GTCTTGATTCGCTTGACGCTGCTG
Target: Interferon regulatory factor 3, full length, phosphomimetic (IRF3, Homo sapiens, UniProt Q14653, residues 1-427, S386D/S396D/S398D/S402D/T404D/S405D)
UniProt Q14653, sequence (whole entry, unmodified, looked up): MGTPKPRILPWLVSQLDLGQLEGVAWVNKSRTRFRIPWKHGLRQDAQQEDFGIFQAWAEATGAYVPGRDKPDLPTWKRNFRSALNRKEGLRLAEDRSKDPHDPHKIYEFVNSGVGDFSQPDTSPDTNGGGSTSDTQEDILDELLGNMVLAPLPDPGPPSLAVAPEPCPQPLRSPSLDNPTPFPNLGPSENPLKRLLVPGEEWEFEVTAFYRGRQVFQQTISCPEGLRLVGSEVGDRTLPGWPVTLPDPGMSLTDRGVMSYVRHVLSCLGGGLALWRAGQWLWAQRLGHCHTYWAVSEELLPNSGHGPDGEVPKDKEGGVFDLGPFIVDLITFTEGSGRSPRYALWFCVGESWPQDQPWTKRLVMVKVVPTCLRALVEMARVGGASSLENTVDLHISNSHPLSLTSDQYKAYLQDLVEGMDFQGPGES
Strand | fitted relative affinity
GACGAACTGGGGGCTGGAGACGTGCTA | -0.283 z-score
TTAGGACAGGGTCTCGGTTAGTGCTAG | -0.508 z-score
TTAGGACTGCTGTTCCTTTAGTGCTAG | -0.0475 z-score
ACCCTCATTCTACTATCGATGTGCTAG | 1.59 z-score
TCATTTTTTAGCTTCTCACTGTGCTAG | 1.09 z-score
GACGCTTTCAGTCTCGAGACGTGCTAG | 2.26 z-score
TCATTAATCACATATACAACTGTGCTA | 0.556 z-score
TTAGATCTCAGACTCGATTAGTGCTAG | 0.163 z-score
TTAGGACAGCTTTTCCTTTAGTGCTAG | 0.722 z-score
TTGGAACTGAGTCTCGATTAGTGCTAG | -0.473 z-score
GACGATATCAGTCTCGTGACGTGCTAG | 1.16 z-score
TTAAATTTCGGGTTTCGATTAGTGCTA | 3.47 z-score
TCAAAAGTCTTTTATGGTACTGTGCTA | -0.34 z-score
GACGGTAGCCTACTGCTGACGTGCTAG | -0.317 z-score
TCAAGTCTTCTCCTCTAACTGTGCTAG | -0.335 z-score
CTGGCTGGGGTGGTGGCAGTGTGCTAG | -1.49 z-score
TCACTTATAAATAGCACACTGTGCTAG | 0.417 z-score
TCACTTTCCCAGCCTGGGACTGTGCTA | 3.91 z-score
GACGATTCCAGATTCGAGACGTGCTAG | 1.62 z-score

For quick reference, copied from above (series 4):
Strand | fitted relative affinity
TTAGATCTCAGACTCGATTAGTGCTAG | 0.163 z-score
TCACTTTCCCAGCCTGGGACTGTGCTA | 3.91 z-score
ACCCTCATTCTACTATCGATGTGCTAG | 1.59 z-score
TCAAGTCTTCTCCTCTAACTGTGCTAG | -0.335 z-score
GACGAACTGGGGGCTGGAGACGTGCTA | -0.283 z-score
TTAGGACAGGGTCTCGGTTAGTGCTAG | -0.508 z-score
GACGGTAGCCTACTGCTGACGTGCTAG | -0.317 z-score
